Published values pooled from the literature.
Numbers after ± are the reported error.

YTNSFTRGVY
frequency of responding donors (AIM; peptide, CD8+ T cells from PBMC, human donors; HLA-A*01:01 restricted, unit not given; baseline: positive over tested donors): 33

LPYGK
transition enthalpy (DSC; peptide, 6/4 SOPC/cholesterol bilayers; 10 mol%, pH 7.40, SOPC chain melting transition): 0.3 kcal/mol

KVAGFAKFL
response magnitude per positive donor (AIM; peptide, CD8+ T cells from PBMC, human donors; dose not given): 113

O=C(O)CN(CCN(CC(=O)O)CC(=O)O)CCN(CC(=O)O)CC(=O)O
uranium excretion (bile duct-cannulated rats, bile and urine; subcutaneous, 150 µmol/kg, 24 h, added: uranium 1 mg/kg s.c.): 276 ± 88 µg/kg

CS/C(S)=N/CCCC[S+](C)[O-] (racemic)
mRNA fold change (RT-PCR, measured: Pon1; rat, liver; oral gavage, 200 mg/kg, 96 h, dosed for four days; baseline: vehicle): 1.13

RTRSMWSF
response magnitude per positive donor (AIM; peptide, CD8+ T cells from PBMC, human donors; dose not given): 109

COc1ccc(C2=N[C@@H](C(=O)O)CS2)c(O)c1
uranium excretion (bile duct-cannulated rats, bile and urine; oral, 300 µmol/kg, 24 h, added: uranium 1 mg/kg s.c.): 260 ± 45 µg/kg

QVVNVVTTK
frequency of responding donors (AIM; peptide, CD8+ T cells from PBMC, human donors; HLA-A*03:01 restricted, unit not given; baseline: positive over tested donors): 100

COCCOCCOCCOc1ccc(C2=N[C@@](C)(C(=O)O)CS2)c(O)c1
uranium excretion (bile duct-cannulated rats, bile and urine; oral, 300 µmol/kg, 24 h, added: uranium 1 mg/kg s.c.): 435 ± 131 µg/kg

CC[C@H](C)[C@H](NC(=O)[C@H](Cc1ccc(O)cc1)NC(=O)[C@H](Cc1c[nH]c2ccccc12)NC(=O)[C@H](CC(C)C)NC(C)=O)C(=O)N[C@@H](CCCCN)C(N)=O
transition enthalpy (DSC; SOPC/cholesterol 6/4 bilayers; 5 mol%, pH 7.40): 0.1 kcal/mol

insulin human
fold change (measured: CNR1 mRNA; EcoHIV-infected mouse, brain; i.p., dose not given; baseline: PBS): 0.892

LPYAK
transition enthalpy (DSC; peptide, 6/4 SOPC/cholesterol bilayers; 15 mol%, pH 7.40, SOPC chain melting transition): 0.4 kcal/mol

C/C=C1\NC(=O)C(C(C)O)NC(=O)C(CCCN)NC(=O)C(CCO)NC(=O)CNC(=O)C(CCN)NC(=O)C(NC(=O)CC(O)CCCCCCCCCCC)COC(=O)C(C(O)CCl)NC(=O)C(C(O)C(=O)O)NC1=O (stereo not drawn)
maximum fusion (calcein leakage; DOPC/DOPG/CHOL liposomes; concentration not given, added: 20 wt% PEG-8000): 44 ± 6%

Cc1c(COC(=O)[C@@H]2[C@H](/C=C(\Cl)C(F)(F)F)C2(C)C)cccc1-c1ccccc1 (racemic)
activity call (antagonist, qPCR in vivo, measured: Shp and Bsep mRNA; Oryzias latipes; dose not given): toxic

COc1ccc(C2=N[C@@](C)(C(=O)O)CS2)c(O)c1
uranium excretion (bile duct-cannulated rats, bile and urine; oral, 300 µmol/kg, 24 h, added: uranium 1 mg/kg s.c.): 265 ± 83 µg/kg

RIAGHHLGR
frequency of responding donors (AIM; peptide, CD8+ T cells from PBMC, human donors; baseline: positive over tested donors): 50%

COCCOCCOCCOc1cccc(C2=N[C@@](C)(C(=O)O)CS2)c1O
uranium excretion (bile duct-cannulated rats, bile and urine; oral, 300 µmol/kg, 24 h, added: uranium 1 mg/kg s.c.): 257 ± 111 µg/kg

YECDIPIGAGI
frequency of responding donors (AIM; peptide, CD8+ T cells from PBMC, human donors; baseline: positive over tested donors): 20%

For quick reference, copied from above:
COc1ccc(C2=N[C@@H](C(=O)O)CS2)c(O)c1
uranium excretion (bile duct-cannulated rats, bile and urine; oral, 300 µmol/kg, 24 h, added: uranium 1 mg/kg s.c.): 260 ± 45 µg/kg

QVVNVVTTK
frequency of responding donors (AIM; peptide, CD8+ T cells from PBMC, human donors; HLA-A*03:01 restricted, unit not given; baseline: positive over tested donors): 100
